Measurements collected from several papers.
Every numbered part comes from another study and shows a few of its results, in no order.

Sample 1 — technique: RNA Bind-n-Seq; form: RNA; medium: in vitro; tested at: not given; setting: RNA with constant flanks, ends assumed; baseline: input RNA pool; reading: higher = stronger binding
Target: RING finger protein unkempt homolog, zinc fingers 1-6, GST-SBP tag (UNK, Homo sapiens, UniProt Q9C0B0, residues 30-357)
Chain of UniProt Q9C0B0 (30-357, looked up): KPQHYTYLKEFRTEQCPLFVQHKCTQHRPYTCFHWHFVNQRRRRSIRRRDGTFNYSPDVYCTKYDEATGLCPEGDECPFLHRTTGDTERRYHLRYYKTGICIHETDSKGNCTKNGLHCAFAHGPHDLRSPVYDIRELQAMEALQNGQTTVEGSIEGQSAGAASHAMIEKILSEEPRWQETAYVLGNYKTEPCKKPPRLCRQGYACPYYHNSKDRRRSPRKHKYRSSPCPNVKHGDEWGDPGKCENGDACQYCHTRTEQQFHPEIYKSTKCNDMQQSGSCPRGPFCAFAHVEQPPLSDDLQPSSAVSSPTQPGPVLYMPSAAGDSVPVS
| Oligonucleotide | bound/input enrichment |
| --- | --- |
| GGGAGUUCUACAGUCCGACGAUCGGCUGUGGAAUCAGUCCAGAAAUUCAUUGUGAUGGUGGCCACACAUUCAGACCUCCUUCUGUCCGCAACUACUGCAUCUGUGACAUUACAAAUGGCAAUCACAGUGUGGAUGAGAUGCCGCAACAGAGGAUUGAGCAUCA | 0.202 ratio |
| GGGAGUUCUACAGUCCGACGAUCUCUGUGUAUGCACACUCCACCCCAGAGUGUUUUCAGUGUGCCAGAGAAGCAGCUGCCGCGUCCGGACAUGAGCCUGUCUAGUGUUUCCUAGGAAAGGGAUAGUUUUCUGUUGGUAUAGCACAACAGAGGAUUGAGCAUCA | 3.49 ratio |
| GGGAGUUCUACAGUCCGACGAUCAAGAAGUCUCAGUAGUAAUCUUGUUCAUGUGCUUUUACAGCCAGCUACAUUUAAGAAUGUAUCCGUUACAGAAAUUAUAUGUCUGUGUAUGUGUCUCUACUCAAUAAAGUACAUGCCUCCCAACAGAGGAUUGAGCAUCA | 0.547 ratio |
| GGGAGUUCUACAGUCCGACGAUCAAACUGGCUGUUCAGAUUGGCAAAGCAGGUCUGUUGAUGUCUGCCAUCACAGUUAUCAUUCCCGUAUUAUAUUUUGUCAUUGACACCUUCUGGGUUCAGAAAAGACCAUGGCUUGCUGAGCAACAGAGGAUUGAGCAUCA | 0.243 ratio |
| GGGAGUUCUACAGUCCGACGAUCGGCUAUGAUGUUUUAGCCAACCCCCCAGGACCAGAAGACCAGGAUGAUGAUGACGAUGCCUACCGCGAUGUGUUUGAAUUUGAAUUUUCAGAGACCCCCCUCUUACCGUGUUAUAACAUCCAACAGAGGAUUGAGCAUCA | 0.487 ratio |
| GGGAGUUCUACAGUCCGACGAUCUGUGUGCGUGCCCGAGUGUGCGCGCGCGGGUGUGUGGACUCGGAGGUGGGGGCAGCCGAGUCCGUCCCAAGUCGUCGGACUCCAUUUGCUAUUCUUUUCUUUCUCUCCCACACCCGUGUGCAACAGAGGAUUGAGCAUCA | 0.333 ratio |
| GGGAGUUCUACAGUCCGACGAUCAUCAAGUAUUUUGGGGAUAUUAUUAGCGUGGGACAGAGAUUGUUGCAAGGGGCCCGGAUUUCCGGAAUUCCUGUUAUUGUAACAGAACAAUACCCUAAAGGUCUUGGGAGCACGGUUCAACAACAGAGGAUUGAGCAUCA | 0.443 ratio |
| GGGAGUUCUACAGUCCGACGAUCGGGUUAUACCAGUAUAAGAACAUUUGUCAACAGGUGAACAUAAAAUCUCUGGAGGAUGUUGUCCGGGCAUAUUUGAAAAUGGCAGAGGAAAAAACUGAAGCUGCUAAAGAAGAAUCUCAGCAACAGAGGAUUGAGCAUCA | 0.166 ratio |
| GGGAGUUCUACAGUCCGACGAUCAUCCAUGACCUCGCAUGCCACGCUGUCACCAUCUGCAGUCCAGAUUAUUUGCUGGAUGUUUCCGAACUAAGUAAAUACACUUUAACCGCUGUGGAGCUUUGCAGACAAUGCCAGAUGGAUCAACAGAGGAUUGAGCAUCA | 0.153 ratio |
| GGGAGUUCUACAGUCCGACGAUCGCUUUCAGCCCGUGUAAAUAUUUAAAUAAAACAGUAUUAACAUUUUUGUGCUGCUUCUCGUCCGGUUGUAGAUCUAGCCAUGCUCUGGCCGCCUCUGCCAUCCUGGAGGUAGUUUUCCUUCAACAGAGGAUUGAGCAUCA | 0.142 ratio |
| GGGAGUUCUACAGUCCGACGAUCAUUAAAAAUGCCUGUUUACAAACGUCUUCCCUUGCUGUCCGUGUGAAUUCAUUAGUGUGCUCCGGGAAGAUCCUGGAGUACCUGGAUAAGUGGUUUGUGCUUGAUGAUAUCCUACCCUUCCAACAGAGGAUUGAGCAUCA | 0.232 ratio |

Sample 2 — technique: RNA Bind-n-Seq; form: RNA; medium: in vitro; tested at: 365 nM; baseline: no-protein control; reading: higher = stronger binding
Target: RNA binding protein fox-1 homolog 2, RRM domain, GST-SBP tag (RBFOX2, Homo sapiens, UniProt O43251-10, residues 100-194)
Setting: natural RNA segment, single round, ends assumed
Target sequence (chain): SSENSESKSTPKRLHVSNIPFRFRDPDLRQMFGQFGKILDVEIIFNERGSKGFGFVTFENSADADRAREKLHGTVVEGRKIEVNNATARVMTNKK
| Oligonucleotide | RBNS enrichment (R) |
| --- | --- |
| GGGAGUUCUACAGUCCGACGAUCCAGAGGACAGGGGCUAAUGAGCUGCUCAGAGCUGCCCUGCCCCUGCUUCUGAACACUGCUUUCCACACAAGCACGGGCAAGUCCCCUUUACCCUUGGAUCAGCCAAGCCAUGGAAUUCUCGGGUGCCAA | 0.28 |
| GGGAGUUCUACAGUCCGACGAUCUCAUUAGAGAGCAUUAUCAGAGAUGUGGAGUCCAUCAGAAGACCAGCUUGCAGUGUGUAUAGCAUAUAGAUGCCAAUAUUAGAAUUCUUUAAAUUAUAUUUAACAUUUUCUGGAAUUCUCGGGUGCCAA | 0.845 |
| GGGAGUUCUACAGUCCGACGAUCGAACGGCAGCCCAGCCGUGGGACGGACGUGGACGUUUACUGCAUUCCUGUUUGCCGUGUAAAUGUUAGAAAGGAAUUAAAGUUAUUACUCGGAAUAAAGGAUGACUUUGGUGGAAUUCUCGGGUGCCAA | 0.653 |
| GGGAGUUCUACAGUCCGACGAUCUAUUAUGGGGACACAGGAAAGACCUCAGCCUCAGUUGUAAACCUGCUCUUUGUCUGCUCAAAGGAAACUUGAAAUAUCUGAGUAAAAGUCAAAGAAACCCAGCUAAGUAAUGGAAUUCUCGGGUGCCAA | 0.325 |
| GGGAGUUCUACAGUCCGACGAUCAUCUUUCUGCUGACAACUUAGGUUGUAUGAGUUAUGCUUAAAAGCUUUAAAUCUGAUGUUUCCUGUACCUGCCACACUAUGUUAGAAUGUGUCCUUCAAACAUAUCCUCCUGGAAUUCUCGGGUGCCAA | 0.296 |
| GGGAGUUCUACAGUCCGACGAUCAGCAAAUGGUUUUGGGCAAGGGCUUUGGCCAUUCAUGUCAAGCUGGUUGUGGGUUUUUCAAGGUGCCAUAGCCACCCCCAAAGAUGUUUGUUUAAAGCGUGGGGUUUUUUUGGAAUUCUCGGGUGCCAA | 0.621 |
| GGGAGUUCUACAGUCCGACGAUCAAUUAUCAAAGGCCCCAUUUGUCAGGGGUGAGAGAAAAGUCAAAAGAUAAAUUGGGGCCUUGUAAAAGGCCAGGGUAAAAUGUCUCAGGCAAGCAAAAGAUUGUCCCCUUUGGAAUUCUCGGGUGCCAA | 0.498 |
| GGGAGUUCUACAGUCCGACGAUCAAAGCAUUCUUCCCAGGGGAAGAGUGUAUCAUGCAUAACUGCAAUUUAAGUCCUUCCUUUGAUAAUACUUCAAAACAUACACAGCUUUGCUUACUGAAUUAUUUUUGCAAUGGAAUUCUCGGGUGCCAA | 0.569 |
| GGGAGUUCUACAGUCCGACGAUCCUUGACUACCUGAGUUUCCUGUCUCUACUUCUUUUCAGCUUCUGGGACCACAGGCCUGUACCACCAUGGCCAGCUUUAGAGAGUAAAACAUUUUAAUUUGUUCUUGAUUUUGGAAUUCUCGGGUGCCAA | 0.611 |
| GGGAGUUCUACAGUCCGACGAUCGUUUGCCUCAACAUUCUUUGUCAUCUACAAAGUAUUUUGGCUUACAAAAGUUCUUUGUAAAGAUGCUUAUUUUACAGUUAUCUGACACAGCAGCUUGUUACCAACAUUUUUGGAAUUCUCGGGUGCCAA | 0.497 |
| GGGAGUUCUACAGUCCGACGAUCGAAGAUUUUUAUCUUCUGCAGUGCUGAUGGCCGGGAGGAACCAUUCAAAGCCACUGGUUAUUUUGUUUUUCAUCAGGCGAUUUUCAAGAUUUUCAUUUGUUUCAGUAUUGUGGAAUUCUCGGGUGCCAA | 0.628 |
| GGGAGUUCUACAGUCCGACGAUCCAAGAUGUAACUCUGGUUAUUUCAGUCAUAUCUGUGACUCUAUCAUGUACAGUUUCCUGAAUUGUCACUGUGCAUCCAAACGUAAUGAGUCUAACAGACACUGAUUUCAUUGGAAUUCUCGGGUGCCAA | 0.329 |

Sample 3 — technique: universal PBM; form: double-stranded DNA, one strand shown; medium: in vitro; tested at: not given; reading: higher = stronger binding
Target: Sal-like protein 4, full length isoform B (SALL4, Homo sapiens, UniProt Q9UJQ4-2, residues 1-616)
Setting: 8-mer, flanks averaged, mean of replicates
Construct (chain): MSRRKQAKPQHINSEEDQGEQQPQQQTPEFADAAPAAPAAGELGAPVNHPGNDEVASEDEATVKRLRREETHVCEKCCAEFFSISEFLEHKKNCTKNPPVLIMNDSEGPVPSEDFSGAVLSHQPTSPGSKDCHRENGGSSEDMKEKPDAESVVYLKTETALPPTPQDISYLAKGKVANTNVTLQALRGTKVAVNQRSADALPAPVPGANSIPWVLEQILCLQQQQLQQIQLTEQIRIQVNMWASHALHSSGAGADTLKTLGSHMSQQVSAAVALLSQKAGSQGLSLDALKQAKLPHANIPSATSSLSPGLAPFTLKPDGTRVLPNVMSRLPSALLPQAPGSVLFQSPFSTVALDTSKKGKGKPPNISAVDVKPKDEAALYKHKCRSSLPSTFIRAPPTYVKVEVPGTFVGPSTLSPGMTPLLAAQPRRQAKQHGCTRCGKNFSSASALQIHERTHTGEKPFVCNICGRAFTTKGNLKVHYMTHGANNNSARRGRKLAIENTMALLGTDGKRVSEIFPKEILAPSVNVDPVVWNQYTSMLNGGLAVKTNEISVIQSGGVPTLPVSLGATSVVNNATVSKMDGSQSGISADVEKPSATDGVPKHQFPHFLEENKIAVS
| Oligonucleotide | E-score |
| --- | --- |
| TCTCGGCA | -0.288 |
| AAGTCGGT | -0.0869 |
| CGTTGGGA | -0.0714 |
| CGATGCGC | -0.132 |
| GGTGCGAA | -0.16 |
| AGCTGGAA | -0.0852 |
| CGGATTCC | -0.117 |
| CACCCTAG | -0.0835 |
| ACGTTATG | 0.352 |
| CTGTAAGA | -0.0311 |
| CGCGCCAA | -0.149 |
| CAGGACTG | -0.261 |
| CGTTGAGC | -0.162 |
| CAATCAGA | -0.0534 |
| AGAGTAAG | -0.0295 |
| AAGCTCTA | 0.0393 |
| GCCGGGAC | -0.249 |
| CATCGTCC | -0.0665 |

Sample 4 — technique: protein binding microarray; form: double-stranded DNA, one strand shown; medium: in vitro; tested at: not given; baseline: not given; reading: higher = stronger binding
Target: Histone acetyltransferase KAT6A, winged helix 2, GST fusion (KAT6A, Homo sapiens, UniProt Q92794, residues 85-181)
Setting: 8-mer, flanks averaged, mean of 2 arrays, mostly near background
Residues (chain): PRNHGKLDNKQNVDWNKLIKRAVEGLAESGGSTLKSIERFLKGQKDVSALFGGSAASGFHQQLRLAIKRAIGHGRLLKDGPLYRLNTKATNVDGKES
| Oligonucleotide | E-score |
| --- | --- |
| CGCTAGAC | -0.0412 |
| ATGCGCTC | 0.0377 |
| AGTCAATC | -0.0184 |
| CGTTGACA | -0.0635 |
| AAACGGGC | 0.0225 |
| CCAATTTC | 0.0629 |
| CGCGAGCA | 0.078 |
| ACTGCTGG | 0.0957 |
| ACTATTAA | 0.0271 |
| CCTGACCA | 0.0662 |
| CAAAGTCC | -0.0103 |
| ACGCTGAG | -0.126 |
| ATGAATAA | -0.0979 |
| CGCATCGC | 0.211 |
| CACAGGGA | 0.0346 |
| ATTACGAC | 0.0464 |
| TCAATGAA | 0.00024 |
| CATGGGCC | 0.0141 |
| CTTTATTC | -0.0199 |
| GGAAACAC | -0.013 |
| AAGTTTCG | 0.0673 |
| AGCGTAGG | 0.0483 |
| TCCTCCCA | 0.0455 |
